Assay results pooled from the literature.
± marks the error that the study gave.
ABCG2: Broad substrate specificity ATP-binding cassette transporter ABCG2 (ABCG2, Homo sapiens, UniProt Q9UNQ0)
UniProt Q9UNQ0, sequence (whole entry, looked up): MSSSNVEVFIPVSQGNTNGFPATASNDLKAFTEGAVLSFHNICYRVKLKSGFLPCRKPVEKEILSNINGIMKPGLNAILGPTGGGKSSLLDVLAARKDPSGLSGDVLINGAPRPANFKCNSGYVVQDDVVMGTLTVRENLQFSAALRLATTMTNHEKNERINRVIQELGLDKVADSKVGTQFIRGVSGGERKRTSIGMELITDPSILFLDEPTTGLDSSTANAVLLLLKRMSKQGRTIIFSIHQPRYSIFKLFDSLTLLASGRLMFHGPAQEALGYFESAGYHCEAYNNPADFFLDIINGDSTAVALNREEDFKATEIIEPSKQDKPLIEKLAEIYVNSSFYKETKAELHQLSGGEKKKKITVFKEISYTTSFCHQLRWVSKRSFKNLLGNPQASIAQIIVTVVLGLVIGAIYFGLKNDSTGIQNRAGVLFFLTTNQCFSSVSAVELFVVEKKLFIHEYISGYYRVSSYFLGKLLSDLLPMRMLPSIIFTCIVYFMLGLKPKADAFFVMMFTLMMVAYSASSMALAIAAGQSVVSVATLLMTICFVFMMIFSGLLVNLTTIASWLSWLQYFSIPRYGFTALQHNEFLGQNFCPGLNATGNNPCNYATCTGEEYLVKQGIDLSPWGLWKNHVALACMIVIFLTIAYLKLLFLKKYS
UniProt P11509, sequence (whole entry, looked up): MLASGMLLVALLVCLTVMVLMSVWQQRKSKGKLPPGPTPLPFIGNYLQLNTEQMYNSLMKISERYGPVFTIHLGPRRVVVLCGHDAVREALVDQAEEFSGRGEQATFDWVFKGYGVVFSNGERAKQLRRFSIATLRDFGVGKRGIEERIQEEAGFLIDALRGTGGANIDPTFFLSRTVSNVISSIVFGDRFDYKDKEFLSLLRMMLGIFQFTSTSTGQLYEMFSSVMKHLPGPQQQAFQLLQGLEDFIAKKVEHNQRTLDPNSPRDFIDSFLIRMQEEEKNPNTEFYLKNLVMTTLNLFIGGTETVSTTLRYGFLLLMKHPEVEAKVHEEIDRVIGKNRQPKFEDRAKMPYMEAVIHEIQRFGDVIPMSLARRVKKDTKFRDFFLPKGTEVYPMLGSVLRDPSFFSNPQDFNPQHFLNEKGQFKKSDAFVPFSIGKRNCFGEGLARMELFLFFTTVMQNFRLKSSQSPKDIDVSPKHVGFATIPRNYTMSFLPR
UniProt P00760, sequence (whole entry, looked up): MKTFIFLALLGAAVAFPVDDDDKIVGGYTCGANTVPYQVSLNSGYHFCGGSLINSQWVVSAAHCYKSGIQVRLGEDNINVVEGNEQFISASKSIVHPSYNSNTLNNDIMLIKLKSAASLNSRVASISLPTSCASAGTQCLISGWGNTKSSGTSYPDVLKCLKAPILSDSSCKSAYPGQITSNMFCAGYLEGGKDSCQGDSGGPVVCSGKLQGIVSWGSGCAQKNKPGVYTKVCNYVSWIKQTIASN

| Molecule | tested on | assay | test system | setting | quantity | result |
| --- | --- | --- | --- | --- | --- | --- |
| C=C(C[C@H](N)C(=O)O)C(=O)Nc1ccc(Cl)cc1 | MCF-10A | necrosis |  | 24 h | EC50 | > 316000 nM |
| O=C(c1ccoc1)N1CCN(c2cc(-c3ccccc3F)nc3cc(-c4cccc(Cl)c4)nn23)CC1 | ABCG2 | JC-1 dye efflux, inhibitor, flow cytometry | ABCG2-overexpressing cells | with: JC-1 1 µM | IC50 | 1930 ± 480 nM |
| N=C1Sc2ccccc2C2=NCCCN12 | Trypanosoma brucei | viability, flow cytometry | bloodstream form | 24 h | EC50 | > 25000 nM |
| CCCCCCCCCCN | Oncorhynchus mykiss | liver S9 substrate depletion | pooled rainbow trout liver S9 | pH 7.8, tested individually | intrinsic clearance in vitro | 0.139 mL/h/mg S9 protein |
| O=C(c1ccoc1)N1CCN(c2cc(-c3cccc(F)c3)nc3cc(-c4ccccc4)nn23)CC1 | ABCG2 | JC-1 dye efflux, inhibitor, flow cytometry | ABCG2-overexpressing cells | with: JC-1 1 µM | IC50 | 1680 ± 610 nM |
| CCCCCCCCCN | Oncorhynchus mykiss | liver S9 substrate depletion | pooled rainbow trout liver S9 | pH 7.8, tested individually | intrinsic clearance in vivo | 12 mL/h/g liver |
| CC[C@H](C)[C@H](NC(=O)[C@H](CCC(=O)O)NC(=O)[C@H](CO)NC(=O)[C@@H](NC(=O)[C@@H](N)CO)C(C)C)C(=O)N[C@@H](CCC(N)=O)C(=O)N[C@@H](CC(C)C)C(=O)N[C@@H](CCSC)C(=O)N[C@@H](Cc1cnc[nH]1)C(=O)N[C@@H](CC(N)=O)C(=O)N[C@@H](CC(C)C)C(=O)NCC(=O)N[C@@H](CCCCN)C(=O)N[C@@H](Cc1cnc[nH]1)C(=O)N[C@@H](CC(C)C)C(=O)N[C@@H](CC(N)=O)C(=O)N[C@@H](CO)C(=O)N[C@@H](CCSC)C(=O)N[C@@H](CCC(=O)O)C(=O)N[C@@H](CCCN=C(N)N)C(=O)N[C@H](C(=O)N[C@@H](CCC(=O)O)C(=O)N[C@@H](Cc1c[nH]c2ccccc12)C(=O)N[C@@H](CC(C)C)C(=O)N[C@@H](CCCN=C(N)N)C(=O)N[C@@H](CCCCN)C(=O)N[C@@H](CCCCN)C(=O)N[C@@H](CC(C)C)C(=O)N[C@@H](CCC(N)=O)C(=O)N[C@@H](CC(=O)O)C(=O)N[C@H](C(=O)N[C@@H](Cc1cnc[nH]1)C(=O)N[C@@H](CC(N)=O)C(=O)N[C@@H](Cc1ccccc1)C(=O)O)C(C)C)C(C)C | Serine protease 1 (PRSS1, Bos taurus, UniProt P00760) | substrate, HPLC-UV | Tris buffer | 5 min, pH 6.5, 37 °C, with: bovine trypsin 0.5 mg, no SBTI | remaining intact compound | 0% |
| O=C1CC(c2ccccc2)Oc2ccccc21 (stereo not shown) | Cytochrome P450 2A6 (CYP2A6, Homo sapiens, UniProt P11509) | substrate, reconstituted monooxygenase system, refers to: hydroxylated metabolite |  |  | Km | 19 µM |
| liraglutide | α1-acid glycoprotein human | equilibrium dialysis |  | 10 nM, 4 to 5 h, pH 7.4, 37 °C, ratio 20:1 (95% bound), with: AAGP 1 mg/mL | protein binding | 96.9% |
| O=S(=O)(c1ccccc1)N1CCN(c2cc(-c3ccccc3)nc3cc(-c4cccc(Cl)c4)nn23)CC1 | ABCG2 | JC-1 dye efflux, inhibitor, flow cytometry | ABCG2-overexpressing cells | with: JC-1 1 µM | IC50 | > 50000 nM |
| CCCCCCCCCCCCCCCCNC | Oncorhynchus mykiss | liver S9 substrate depletion | rainbow trout liver S9 | tested individually | intrinsic clearance in vivo | 33 mL/h/g liver |
| O=C(c1ccccc1Cl)N1CCN(c2cc(-c3ccccc3)nc3cc(-c4cccc(Cl)c4)nn23)CC1 | ABCG2 | JC-1 dye efflux, inhibitor, flow cytometry | ABCG2-overexpressing cells | with: JC-1 1 µM | IC50 | 1310 ± 230 nM |
| CCCCCCCCCCCCCCCCN(C)C | Oncorhynchus mykiss | liver S9 substrate depletion | rainbow trout liver S9 | tested individually | intrinsic clearance in vivo | 105 mL/h/g liver |

A few entries again:
| Molecule | tested on | assay | test system | setting | quantity | result |
| --- | --- | --- | --- | --- | --- | --- |
| liraglutide | α1-acid glycoprotein human | equilibrium dialysis |  | 10 nM, 4 to 5 h, pH 7.4, 37 °C, ratio 20:1 (95% bound), with: AAGP 1 mg/mL | protein binding | 96.9% |
| C=C(C[C@H](N)C(=O)O)C(=O)Nc1ccc(Cl)cc1 | MCF-10A | necrosis |  | 24 h | EC50 | > 316000 nM |
